{"data": "Published values gathered from unrelated publications", "note": "Numbers after ± are the reported error.", "UniProt P02769, sequence (whole entry, looked up)": "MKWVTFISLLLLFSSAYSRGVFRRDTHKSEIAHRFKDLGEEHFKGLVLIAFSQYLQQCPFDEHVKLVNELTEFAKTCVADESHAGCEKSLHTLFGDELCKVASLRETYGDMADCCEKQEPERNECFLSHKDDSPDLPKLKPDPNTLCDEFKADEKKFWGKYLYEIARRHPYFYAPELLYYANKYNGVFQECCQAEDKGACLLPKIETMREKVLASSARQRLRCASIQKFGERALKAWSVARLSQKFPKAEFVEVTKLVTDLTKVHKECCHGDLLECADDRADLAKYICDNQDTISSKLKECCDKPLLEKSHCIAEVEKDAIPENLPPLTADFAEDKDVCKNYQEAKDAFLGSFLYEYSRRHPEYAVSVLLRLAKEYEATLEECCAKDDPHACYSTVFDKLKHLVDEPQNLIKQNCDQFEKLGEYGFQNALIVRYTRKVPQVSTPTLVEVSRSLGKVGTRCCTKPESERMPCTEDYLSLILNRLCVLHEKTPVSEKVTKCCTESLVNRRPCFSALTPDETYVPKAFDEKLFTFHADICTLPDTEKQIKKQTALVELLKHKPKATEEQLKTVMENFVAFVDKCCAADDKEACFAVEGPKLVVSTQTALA"}
{"Substance": "dmhA K162M (Campylobacter jejuni)", "tested on": "Nc1nc2c(ncn2[C@@H]2O[C@H](COP(=O)(O)OP(=O)(O)O[C@H]3O[C@H]([C@H](O)CO)[C@@H](O)[C@H](O)[C@@H]3O)[C@@H](O)[C@H]2O)c(=O)[nH]1", "test": "steady-state kinetics", "setting": "pH 7.5, 30 °C", "measurement": "Km", "value": "55 µM"}
{"Substance": "SQETFSDLWKLLPENN", "tested on": "Cln2 (yeast)", "test": "cell growth, competitive growth sequencing", "test system": "peptide, Saccharomyces cerevisiae", "setting": "peptide tiling library", "how to read": "direction not given", "measurement": "enrichment score", "value": 1.07}
{"Substance": "dmhA S133T (Campylobacter jejuni)", "tested on": "Nc1nc2c(ncn2[C@@H]2O[C@H](COP(=O)(O)OP(=O)(O)O[C@H]3O[C@H]([C@H](O)CO)[C@@H](O)[C@H](O)[C@@H]3O)[C@@H](O)[C@H]2O)c(=O)[nH]1", "test": "steady-state kinetics", "setting": "pH 7.5, 30 °C", "measurement": "kcat/Km", "value": "7400 ± 700 M⁻¹ s⁻¹"}
{"Substance": "Cj1438c (Campylobacter jejuni, UniProt Q0P8H6)", "tested on": "Nc1ncnc2c1ncn2[C@@H]1O[C@H](COP(=O)(O)OP(=O)(O)OP(=O)(O)O)[C@@H](O)[C@H]1O", "test": "steady-state kinetics", "setting": "pH 8, 25 °C, apparent", "measurement": "kcat/Km", "value": "62000 ± 5000 M⁻¹ s⁻¹"}
{"Substance": "dmhA Y300F (Campylobacter jejuni)", "tested on": "Nc1nc2c(ncn2[C@@H]2O[C@H](COP(=O)(O)OP(=O)(O)O[C@H]3O[C@H]([C@H](O)CO)[C@@H](O)[C@H](O)[C@@H]3O)[C@@H](O)[C@H]2O)c(=O)[nH]1", "test": "steady-state kinetics", "setting": "pH 7.5, 30 °C", "measurement": "Km", "value": "15 µM"}
{"Substance": "CCOc1cc(CC(=O)NC(CC(C)C)c2ccccc2N2CCCCC2)ccc1C(=O)O (centres unmarked)", "tested on": "Albumin (ALB, Bos taurus, UniProt P02769)", "test": "binding, fluorescence", "test system": "bovine serum albumin", "setting": "298 K, together with: ibuprofen (site II probe)", "measurement": "Kd", "value": "293 µM"}
{"Substance": "dmhA Y158F (Campylobacter jejuni)", "tested on": "Nc1nc2c(ncn2[C@@H]2O[C@H](COP(=O)(O)OP(=O)(O)O[C@H]3O[C@H]([C@H](O)CO)[C@@H](O)[C@H](O)[C@@H]3O)[C@@H](O)[C@H]2O)c(=O)[nH]1", "test": "steady-state kinetics", "setting": "pH 7.5, 30 °C", "measurement": "kcat", "value": "0.008 ± 0.0004 s⁻¹"}
{"Substance": "hdhb E18D/G39D/R40L/R41N/T17A (Clostridium sardiniense)", "tested on": "NC(=O)c1ccc[n+]([C@@H]2O[C@H](COP(=O)(O)OP(=O)(O)OC[C@H]3O[C@@H](n4cnc5c(N)ncnc54)[C@H](O)[C@@H]3O)[C@@H](O)[C@H]2O)c1", "test": "steady-state kinetics", "setting": "pH 8, 25 °C, cofactor varied", "measurement": "kcat/Km", "value": "234 M⁻¹ s⁻¹"}
{"note": "A few entries again:"}
{"Substance": "dmhA Y300F (Campylobacter jejuni)", "tested on": "Nc1nc2c(ncn2[C@@H]2O[C@H](COP(=O)(O)OP(=O)(O)O[C@H]3O[C@H]([C@H](O)CO)[C@@H](O)[C@H](O)[C@@H]3O)[C@@H](O)[C@H]2O)c(=O)[nH]1", "test": "steady-state kinetics", "setting": "pH 7.5, 30 °C", "measurement": "Km", "value": "15 µM"}
